Measured values of several laboratories.
Compare with care: the assays were run in different laboratories. Values joined by “and” are separate records of one study, mostly repeats; a detail may differ. ± marks the error that the study gave.
G-protein coupled receptor 39: G-protein coupled receptor 39 (Mus musculus, UniProt Q5U431)
Kir3.1/Kir3.2: Kir3.1/Kir3.2 (Homo sapiens, UniProt P48051+P48549)
CXCL8: Interleukin-8 (CXCL8, Homo sapiens, UniProt P10145)
CXCL12: Stromal cell-derived factor 1 (CXCL12, Homo sapiens, UniProt P48061)
NPBWR1: Neuropeptides B/W receptor type 1 (NPBWR1, Homo sapiens, UniProt P48145)
GPBAR1: G-protein coupled bile acid receptor 1 (GPBAR1, Homo sapiens, UniProt Q8TDU6)

CC1=NC(C)C(C)S1 (centres unmarked) — EC50 (uncharacterized protein (Puma concolor, UniProt A0A6P6H1F7); cAMP, agonist; HEK293 transfected with uncharacterized protein): 441 ± 31.2 µM
CC[C@H](C)[C@H]1C(=O)N(Cc2cc3ccccc3c3ccccc23)C[C@@H]2N(C(=O)NCCCC(F)(F)F)CCC(=O)N12 — EC50 (ATP-dependent Clp protease proteolytic subunit (clpP, Staphylococcus aureus, UniProt Q2G036); activator): 1.3 µM
Cc1nn(-c2cccc(N)c2)c(=O)c2cnc(Nc3ccc(N4CCNCC4)cc3)nc12 — IC50 (Mast/stem cell growth factor receptor Kit (KIT, Homo sapiens, UniProt P10721, T670I); enzyme activity, inhibitor): > 10 µM
Cn1c(=O)n(C2CCC(=O)NC2=O)c2ccc(C3CCN(CC(=O)Nc4cccc(CS(=O)(=O)N5CC[C@H](Nc6cccc(-c7sc(C(=O)O)c(OCC(=O)O)c7Cl)c6)CC5(C)C)c4)CC3)cc21 (some centres unmarked) — EC50 (Receptor-type tyrosine-protein phosphatase C (PTPRC, Homo sapiens, UniProt P08575); phosphatase activity; with: DiFMUP substrate): > 10 µM
CC(CCC(=O)NCCS(=O)(=O)O)C1CCC2C3CCC4CC(O)CCC4(C)C3CCC12C (centres unmarked) — EC50 (G-protein coupled receptor 39; calcium signal, agonist, fluorescence): 44 µM
O=C(COc1ccc(C(F)(F)F)cc1C(F)(F)F)Nc1cc(C2CCC2)nn1CC(F)(F)F — EC50 (Kir3.1/Kir3.2; activator, thallium flux; HEK293): 3 µM
CCc1cc(O)cc2c(/C=N/NC(=N)NCCc3ccc(Cl)cc3)c[nH]c12 — EC50 (Relaxin-3 receptor 2 (RXFP4, Homo sapiens, UniProt Q8TDU9, T295A); agonist): 0.00708 µM
CC(=O)N[C@@H]1[C@@H](O[C@@H]2O[C@H](C(=O)O)[C@@H](O[C@@H]3O[C@H](COS(=O)(=O)O)[C@@H](O)[C@H](O[C@@H]4O[C@H](C(=O)O)[C@@H](O)[C@H](O)[C@H]4O)[C@H]3NC(C)=O)[C@H](O)[C@H]2O)[C@H](O)[C@@H](COS(=O)(=O)O)O[C@H]1N=[N+]=[N-] — EC50 (CXCL8; fluorescence polarization competition; CXCL8 800 nM, 100% DW, with: TAMRA-labelled probe): 3410 ± 507 µM
CC1=C(C(=O)OC2CCCC2)C(c2ccccc2Cl)C2=C(CC(C)(C)CC2=O)N1 (centres unmarked) — EC50 (ADGRG1 (Homo sapiens, UniProt Q9Y653); G13 activation, agonist, GTPγS binding, reconstitution): 1.89 ± 0.22 µM
COC1CN([C@H]2CC[C@H]([C@@]3(C)Oc4c(Cl)cc(C(=O)NCc5c(SC)cc(C)[nH]c5=O)c(C)c4O3)CC2)C1 — log2 fold change (RNA-seq, refers to: PHF13 mouse homolog; mouse, HT-1376 xenograft, whole blood; dose not given; baseline: vehicle): 0.231
CC(=O)N[C@@H]1[C@@H](O[C@@H]2O[C@H](C(=O)O)[C@@H](O[C@@H]3O[C@H](COS(=O)(=O)O)[C@@H](OS(=O)(=O)O)[C@H](O[C@@H]4O[C@H](C(=O)O)[C@@H](O[C@@H]5O[C@H](COS(=O)(=O)O)[C@@H](OS(=O)(=O)O)[C@H](O[C@@H]6O[C@H](C(=O)O)[C@@H](OS(=O)(=O)O)[C@H](OS(=O)(=O)O)[C@H]6OS(=O)(=O)O)[C@H]5NC(C)=O)[C@H](OS(=O)(=O)O)[C@H]4OS(=O)(=O)O)[C@H]3NC(C)=O)[C@H](OS(=O)(=O)O)[C@H]2OS(=O)(=O)O)[C@H](OS(=O)(=O)O)[C@@H](COS(=O)(=O)O)O[C@H]1N=[N+]=[N-] — EC50 (CXCL12; binding, fluorescence polarization competition; CXCL12 60 nM, 80% DW, with: TAMRA probe): 0.119 ± 0.024 µM
Nc1ncnc2c1ncn2[C@@H]1O[C@H](COP(=O)(O)OP(=O)(O)OC[C@H]2OC(O)[C@H](O)[C@@H]2O)[C@@H](O)[C@H]1OP(=O)(O)O (some centres unmarked) — EC50 (TRPM2 (Nematostella vectensis, UniProt A7T1N0, M197C); agonist): 0.3 ± 0.008 µM
Nc1ncc(-c2cc(-c3cnn(CC(F)(F)F)c3)ncc2F)nc1C(=O)NC1CNCC(F)C1 (centres unmarked) — remaining binding (MEK2; KINOMEscan; 1 µM; baseline: DMSO control): 52%
CC(C)Oc1cc(Cl)ccc1CNc1cc(-c2ccccc2)nc2ncnn12 — EC50 (G-protein coupled receptor 3 (GPR3, Homo sapiens, UniProt P46089, Q215A); cAMP level, agonist, GloSensor; receptor Q215A mutant): 0.479 µM and 0.204 µM and 0.55 µM and 0.501 µM and 0.589 µM
C[C@H](CCC(=O)NCC(=O)O)[C@H]1CC[C@H]2[C@@H]3CC[C@@H]4C[C@H](OS(=O)(=O)O)CC[C@]4(C)[C@H]3CC[C@]12C — EC50 (G-protein coupled receptor 39; calcium signal, agonist, fluorescence): 47.9 µM
CC(C)C[C@H](NC(=O)CNC(=O)[C@H](C)NC(=O)[C@H](C)NC(=O)[C@H](CCCNC(=N)N)NC(=O)CNC(=O)CCCCNC(=O)CCCCNC(=O)CCCCNC(=O)[C@H](CCCCN)NC(=O)[C@H](C)NC(=O)[C@@H](N)Cc1c[nH]c2ccccc12)C(=O)N[C@@H](CC(C)C)C(=O)N[C@@H](CO)C(N)=O — EC50 (NPBWR1; calcium signal, agonist): > 10 µM
CC(C)(O)c1ccn2c(-c3ccc(F)c(-c4ccc(F)cc4C#N)c3)cnc2c1F — EC50 (Gamma-aminobutyric acid receptor subunit alpha-1 (GABRA1, Homo sapiens, UniProt P14867, G251D); Western blot, refers to: GABRA1 G251D protein level; HEK293T stably expressing α1 G251D; 24 h): 2.6 ± 0.1 µM
CC(=O)N[C@@H]1[C@@H](O[C@@H]2O[C@H](C(=O)O)[C@@H](OS(=O)(=O)O)[C@H](OS(=O)(=O)O)[C@H]2OS(=O)(=O)O)[C@H](OS(=O)(=O)O)[C@@H](COS(=O)(=O)O)O[C@H]1N=[N+]=[N-] — EC50 (CXCL8; fluorescence polarization competition; CXCL8 800 nM, 100% DW, with: TAMRA-labelled probe): 133 ± 16.1 µM
CC(C)C[C@H](NC(=O)CNC(=O)[C@H](CO)NC(=O)[C@H](CC(C)C)NC(=O)[C@H](CC(C)C)NC(=O)CNC(=O)[C@H](C)NC(=O)[C@H](C)NC(=O)[C@H](CCCNC(=N)N)NC(=O)CNC(=O)[C@@H](NC(=O)[C@H](CO)NC(=O)[C@H](Cc1ccc(O)cc1)NC(=O)[C@H](CO)NC(=O)[C@H](CO)NC(=O)[C@H](Cc1cnc[nH]1)NC(=O)CNC(=O)[C@H](C)NC(=O)[C@H](C)NC(=O)[C@@H]1CCCN1C(=O)[C@H](CCCCN)NC(=O)[C@H](Cc1ccc(O)cc1)NC(=O)[C@@H](N)Cc1c[nH]c2ccccc12)C(C)C)C(N)=O — EC50 (NPBWR1; cAMP, agonist, TR-FRET): 0.0035 µM
CC(CCC(=O)NCCS(=O)(=O)O)C1CCC2C3CCC4CC(O)CCC4(C)C3CC(O)C12C (centres unmarked) — EC50 (GPBAR1; agonist): 1.9 ± 1.3 µM
O=C(Cc1ccc(OCc2ccccc2)cc1)NC1(C(=O)O)CCN(C(=O)c2ccc(-c3cccc(Cl)c3)cc2)CC1 — EC50 (Sphingosine 1-phosphate receptor 3 (S1PR3, Homo sapiens, UniProt Q99500); cAMP, agonist, luciferase): > 10 µM
C=CC(=O)Nc1cccc(Cn2ncc3cnc(Nc4cnn(CCOC)c4)nc32)c1 — percent of control (MLK1 human; binding, KINOMEscan; 100 nM; lower = stronger binding): 51%
O=C(COc1ccc(Cl)cc1Cl)Nc1cc(C2CC2)nn1C1CCOCC1 — EC50 (Kir3.1/Kir3.2; activator, thallium flux; HEK293): 0.176 µM
CC(CCC(=O)NCCS(=O)(=O)O)C1CCC2C3C(O)CC4CC(O)CCC4(C)C3CC(O)C12C (centres unmarked) — EC50 (GPBAR1; agonist): 15.8 ± 5.4 µM
CC(=O)N[C@@H]1[C@@H](O[C@@H]2O[C@H](C(=O)O)[C@@H](O[C@@H]3O[C@H](COS(=O)(=O)O)[C@@H](OS(=O)(=O)O)[C@H](O[C@@H]4O[C@H](C(=O)O)[C@@H](OS(=O)(=O)O)[C@H](OS(=O)(=O)O)[C@H]4OS(=O)(=O)O)[C@H]3NC(C)=O)[C@H](OS(=O)(=O)O)[C@H]2OS(=O)(=O)O)[C@H](OS(=O)(=O)O)[C@@H](COS(=O)(=O)O)O[C@H]1N=[N+]=[N-] — EC50 (CXCL12; fluorescence polarization competition; CXCL12 388 nM, 200% DW, with: TAMRA-labelled probe): 5 ± 0.7 µM
CC(CCC(=O)NCC(=O)O)C1CCC2C3C(O)CC4CC(OS(=O)(=O)O)CCC4(C)C3CCC12C (centres unmarked) — EC50 (GPBAR1; agonist): > 200 µM
COc1cc(C2C(NC(=O)c3ccc(NC(=O)OC(C)(C)C)cc3)(C(=O)O)C(c3ccc(OC(=O)c4cccs4)c(OC)c3)C2(NC(=O)c2ccc(NC(=O)OC(C)(C)C)cc2)C(=O)O)ccc1OC(=O)c1cccs1 (centres unmarked) — EC50 (Glucagon-like peptide 1 receptor (GLP1R, Homo sapiens, UniProt P43220, T298A); cAMP, agonist): 0.0331 µM
CC(C)C[C@H](NC(=O)[C@H](CC(C)C)NC(=O)CNC(=O)[C@H](C)NC(=O)[C@@H](C)NC(=O)[C@H](CCCNC(=N)N)NC(=O)CNC(=O)CCCCNC(=O)CCCCNC(=O)CCCCNC(=O)[C@H](CCCCN)NC(=O)[C@H](Cc1ccc(O)cc1)NC(=O)[C@@H](N)Cc1c[nH]c2ccccc12)C(N)=O — EC50 (NPBWR1; calcium signal, agonist): 0.578 µM
COc1ccc(C(=O)c2c(C(=O)NCCCN(C)C)oc3ccc(Cl)cc3c2=O)cc1OC — EC50 (Growth hormone secretagogue receptor type 1 (GHSR, Homo sapiens, UniProt Q92847, R199A); Gαq dissociation, TRUPATH BRET; HEK293T): 0.0741 µM
CC(CCC(=O)NCC(=O)O)C1CCC2C3CCC4CC(OS(=O)(=O)O)CCC4(C)C3CC(O)C12C (centres unmarked) — EC50 (GPBAR1; agonist): > 200 µM
CC(=O)N[C@@H]1[C@@H](O[C@@H]2O[C@H](C(=O)O)[C@@H](O[C@@H]3O[C@H](CO)[C@@H](OS(=O)(=O)O)[C@H](O[C@@H]4O[C@H](C(=O)O)[C@@H](OS(=O)(=O)O)[C@H](OS(=O)(=O)O)[C@H]4OS(=O)(=O)O)[C@H]3NC(C)=O)[C@H](OS(=O)(=O)O)[C@H]2OS(=O)(=O)O)[C@H](OS(=O)(=O)O)[C@@H](CO)O[C@H]1N=[N+]=[N-] — EC50 (CXCL8; fluorescence polarization competition; CXCL8 800 nM, 100% DW, with: TAMRA-labelled probe): 12.5 ± 3.6 µM
CC(CCC(=O)NCCS(=O)(=O)O)C1CCC2C3CCC4CC(OS(=O)(=O)O)CCC4(C)C3CCC12C (centres unmarked) — EC50 (GPBAR1; agonist): 99.5 ± 24.1 µM
O=C(COc1cc(Cl)ccc1Cl)Nc1cc(C2CC2)nn1C1CCOCC1 — EC50 (Kir3.1/Kir3.2; activator, thallium flux; HEK293): 0.249 µM
CC(CCC(=O)NCC(=O)O)C1CCC2C3C(O)CC4CC(O)CCC4(C)C3CC(O)C12C (centres unmarked) — EC50 (GPBAR1; agonist): 27.7 ± 5.3 µM
C=C(NC(=O)c1csc(-c2nc3c(cc2O)-c2nc(cs2)C(=O)NC(C(C)O)C(=O)NC(=C(C)OC)c2nc(cs2)C(=O)NC2c4nc(cs4)C(=O)NC(COC(=O)c4c5c6c(cccc6n4O)COC(=O)C(OC4CC(C)(O)C(N(C)C)C(C)O4)C2OC5)c2nc-3cs2)n1)C(N)=O (centres unmarked) — clearance (cynomolgus monkey, male, plasma; intravenous infusion, 3 mg/kg single dose): 2.73 mL/min/kg

For quick reference, copied from above:
O=C(COc1ccc(Cl)cc1Cl)Nc1cc(C2CC2)nn1C1CCOCC1 — EC50 (Kir3.1/Kir3.2; activator, thallium flux; HEK293): 0.176 µM
CC(CCC(=O)NCCS(=O)(=O)O)C1CCC2C3C(O)CC4CC(O)CCC4(C)C3CC(O)C12C (centres unmarked) — EC50 (GPBAR1; agonist): 15.8 ± 5.4 µM
CC(=O)N[C@@H]1[C@@H](O[C@@H]2O[C@H](C(=O)O)[C@@H](O[C@@H]3O[C@H](COS(=O)(=O)O)[C@@H](OS(=O)(=O)O)[C@H](O[C@@H]4O[C@H](C(=O)O)[C@@H](OS(=O)(=O)O)[C@H](OS(=O)(=O)O)[C@H]4OS(=O)(=O)O)[C@H]3NC(C)=O)[C@H](OS(=O)(=O)O)[C@H]2OS(=O)(=O)O)[C@H](OS(=O)(=O)O)[C@@H](COS(=O)(=O)O)O[C@H]1N=[N+]=[N-] — EC50 (CXCL12; fluorescence polarization competition; CXCL12 388 nM, 200% DW, with: TAMRA-labelled probe): 5 ± 0.7 µM
